Published values of several laboratories.
Every numbered part comes from another study and shows a few of its results, in no order. Substitutions count along the parent as printed.

Set 1
Target: CCNF, cyclin fold, Cln2 fusion (human)
Method: yeast growth competition, sequencing
Sample: yeast
Notes: strong parent motif
Relative to: not given
Direction: higher = stronger binding
Parent: CDC6 docking peptide (human); TLKGRRLVFDNQL
Substitution	normalised enrichment score
TLKGRRLVCDNQL [F9C]	0.753
TLKGMRLVFDNQL [R5M]	1.21
TLKGRRIVFDNQL [L7I]	5.09
TLKGRRLLFDNQL [V8L]	9.3
TLKGRRLVFKNQL [D10K]	7.27
TLKGRRLVFDNRL [Q12R]	9.2
TLKGRRLVFDNML [Q12M]	8.76

Set 2
Target: ABI1, truncated, D143A, DHFR fusion (Arabidopsis thaliana)
Method: DHFR PCA, deep sequencing
Sample: yeast
Notes: methotrexate growth selection, single substitutions
Added: (+)-ABA 0.11 µM
Relative to: wild-type fitted maximum
Direction: higher = stronger binding
Parent: PYL1, truncated, DHFR fusion (Arabidopsis thaliana); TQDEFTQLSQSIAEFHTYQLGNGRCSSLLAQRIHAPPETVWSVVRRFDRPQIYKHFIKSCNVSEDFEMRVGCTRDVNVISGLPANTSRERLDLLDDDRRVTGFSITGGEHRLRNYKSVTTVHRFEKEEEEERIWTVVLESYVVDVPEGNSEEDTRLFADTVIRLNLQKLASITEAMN; partner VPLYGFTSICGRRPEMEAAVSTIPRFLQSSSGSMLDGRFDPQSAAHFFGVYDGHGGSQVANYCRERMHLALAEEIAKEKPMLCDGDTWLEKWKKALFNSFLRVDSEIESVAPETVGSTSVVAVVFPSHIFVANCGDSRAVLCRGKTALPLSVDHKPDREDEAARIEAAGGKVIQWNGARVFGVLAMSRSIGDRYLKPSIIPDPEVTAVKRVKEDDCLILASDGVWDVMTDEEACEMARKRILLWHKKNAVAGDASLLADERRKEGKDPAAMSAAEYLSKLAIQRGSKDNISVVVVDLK
Substitution	relative binding score
S63K	33.9%
N114I	1.5%
E131H	55.1%
N61R	52.6%
R24N	-1.07%
K116V	-4.69%
N77Y	43.7%

Set 3
Target: RNA binding protein fox-1 homolog 2, RRM domain, GST-SBP tag (RBFOX2, Homo sapiens, UniProt O43251-10, residues 100-194)
Method: RNA Bind-n-Seq
Form: RNA
Sample: in vitro
Tested at: 365 nM
Notes: natural RNA segment, single round, ends assumed
Relative to: no-protein control
Direction: higher = stronger binding
All sequences stand within: GGGAGUUCUACAGUCCGACGAUC … UGGAAUUCUCGGGUGCCAA
Construct (chain): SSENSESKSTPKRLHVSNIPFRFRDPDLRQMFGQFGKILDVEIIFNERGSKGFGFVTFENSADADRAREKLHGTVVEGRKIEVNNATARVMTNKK
Strand	RBNS enrichment (R)
AAGGCAGCAAGACUUCCUGCUAUCCAAGCCCAUGGAGGAAAGUUACUGCUGAGGACCCACCCAAUGGAAGGAUUCUUCUCAGCCUUGACCCUGGAGCACUGGGAACAACU	0.231
CCGUGGAGGUCCUGUCCACAGCUGGACAGGAGAGACACCGCCUGCGGUGGUUCAUUCCUUUCAGCCAUCGUCCUUUCCUCCGGCGGACAGCUGCUUACAUGUUCAUCUCU	0.369
CCACCACCAACAACAAAAAACAAAAGUCCAAAAAACCAAAAAACCUACAAAGGCAAAAGAGGUUUGAGAGCCGUGGUUGUUUAGGACAGUUGUGGUUUGUAGCAGGAAAG	0.518
GUCUUUAUGGAAGGCACUUGUUACAGUAUUUGCCCAUUGUACAGAGCAAUGCUACAUUGUUGUAAAAAGAAUUGCUAUUGUAAAAAAGCACUGUGUGACUUUGUGAAGGA	0.536
GCCCCAGUAUGGAAGAAAGACUUAACCUGUGGGAAAAACAAUUAUCUUUUUAAAUAGAGAGCUAUGUAUUUUUCAUGUAAUCUGUGAUUUCAAGAAGAUGAUUGGAGUAU	0.423

Mixed results
Molecule	target	assay	system	setting	how to read	quantity	result
PhoQ, residues 284 288 289 292 302 303 GANMMA	PhoP, residues 12 14 15 18 19 TPWLV (Escherichia coli, UniProt P23836)	Sort-seq, refers to: YFP reporter	E. coli	PhoQ-PhoP variant library, added: 10 µM Mg2+	relative to: high Mg2+ state, higher = stronger signaling	fold induction	0.617

For quick reference, copied from above (set 3):
Strand	RBNS enrichment (R)
AAGGCAGCAAGACUUCCUGCUAUCCAAGCCCAUGGAGGAAAGUUACUGCUGAGGACCCACCCAAUGGAAGGAUUCUUCUCAGCCUUGACCCUGGAGCACUGGGAACAACU	0.231
CCGUGGAGGUCCUGUCCACAGCUGGACAGGAGAGACACCGCCUGCGGUGGUUCAUUCCUUUCAGCCAUCGUCCUUUCCUCCGGCGGACAGCUGCUUACAUGUUCAUCUCU	0.369
